Results gathered from unrelated publications.
Each numbered part is a random draw from the data of one study; scales do not carry over between parts. Changes are numbered by the printed parent chain.

Series 1
Target: CCNF, cyclin fold, Cln2 fusion (human)
Technique: yeast growth competition, sequencing
Medium: yeast
Notes: strong parent motif
Reference: not given
Direction: higher = stronger binding
Starting sequence: SCAPER docking peptide (human); SNARRSLNFGGST
Variant	normalised enrichment score
SNGRRSLNFGGST [A3G]	3.5
SNARRSLNHGGST [F9H]	0.635
SNAIRSLNFGGST [R4I]	5.67
SNARMSLNFGGST [R5M]	1.72
SNARRSLNFPGST [G10P]	5.43
SNARESLNFGGST [R5E]	0.249
SNARRSLNFGGFT [S12F]	7.34
SNARRSGNFGGST [L7G]	0.36
SNAPRSLNFGGST [R4P]	1.68
SNARFSLNFGGST [R5F]	1.39
SNADRSLNFGGST [R4D]	0.47
SNARWSLNFGGST [R5W]	0.791
SNHRRSLNFGGST [A3H]	2.69
SDARRSLNFGGST [N2D]	4.28
SNARRSLCFGGST [N8C]	6.82
SNARRSLIFGGST [N8I]	7.42
SNARRSLNFGGSS [T13S]	7.98

Series 2
Target: ABI1, truncated, D143A, DHFR fusion (Arabidopsis thaliana, UniProt P49597)
Technique: DHFR PCA, dose-response
Medium: yeast
Notes: Hill fit, not affinity, not high confidence
With: (+)-ABA, dose series
Direction: lower = more sensitive
Starting sequence: PYL1, truncated, DHFR fusion (Arabidopsis thaliana, UniProt Q8VZS8); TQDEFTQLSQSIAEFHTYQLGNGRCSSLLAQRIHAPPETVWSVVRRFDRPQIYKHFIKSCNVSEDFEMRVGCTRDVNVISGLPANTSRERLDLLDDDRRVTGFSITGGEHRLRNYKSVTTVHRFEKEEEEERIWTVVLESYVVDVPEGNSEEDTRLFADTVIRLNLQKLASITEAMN
Variant	ABA EC50
I162G	618 µM
V161W	1.47 µM
F47G	86.9 µM
V161H	1.39 µM
A158Y	0.152 µM
V118G	987 µM
I162F	16.7 µM
D159F	670 µM
I33P	1050 µM
L166T	3.87 µM
F103Q	1540 µM
L82D	1.41 µM
E89N	13.9 µM
T120P	1570 µM
V142P	1.46 µM
K54A	1.94 µM

Series 3
Target: Interferon regulatory factor 5, full length, phosphomimetic (IRF5, Homo sapiens, UniProt Q13568-2, residues 1-514, S451D/S453D/S456D/S462D)
Technique: protein-binding microarray
Molecule type: double-stranded DNA, one strand shown
Medium: in vitro
Concentration: 940 nM top
Notes: 60-bp whole probe
With: salmon DNA 0.4 mg/ml
Reference: random background probes
Direction: higher = stronger binding
Constant ends, left off below: GCCTAGCAC … GTCTTGATTCGCTTGACGCTGCTG
Oligonucleotide	fitted relative affinity
TTAGATTTCGAGACTGGATTAGTGCTA	0.785 z-score
GACGGCATCGGTCTCGGGACGTGCTAG	0.285 z-score
GACGGCTCCGGTTTCGGGACGTGCTAG	3.22 z-score
GACGATTTGGGGTATCGAGACGTGCTA	1.07 z-score
TATTCCCCATCACTCACTCTGTGCTAG	1.37 z-score
AAAACTCTTTATTTAAGCTCGTGCTAG	0.67 z-score
TCATCTTCAGCACTCGGACTGTGCTAG	0.265 z-score
GACGGTTTCGGGACTGGTGACGTGCTA	6.45 z-score
TCACCTCTGCTCCTCTTACTGTGCTAG	0.909 z-score
TTAGGTATCGACTTTCGGTCAGTGCTA	6.4 z-score
TTCGATTTCGGGTTTCGATTAGTGCTA	6.39 z-score
GACAGTCTCGGTTTCGGGACGTGCTAG	8.1 z-score
TTTTTTTTCCTAATTGAACCGTGCTAG	0.764 z-score
TTAGGTCTCGGACTGGGTCAGTGCTAG	0.886 z-score
TTAGAACTGAGTTTCGATTCGTGCTAG	7.5 z-score
GTGTTTTGCCCTATTTAAGAGTGCTAG	0.768 z-score
AACGGTCTCGGTATCGGGACGTGCTAG	4.61 z-score
TTAGATTTCCTTTTCCTTTAGTGCTAG	0.886 z-score
TTAGATTTCAGACTGGATTTGTGCTAG	-0.389 z-score
TAGGGACTCGGGTCTCCCTTGGTGCTA	-0.536 z-score
TTAGGTCTCCTTATCCTTGAGTGCTAG	0.261 z-score
GCGATTTGAGGAGCTCGCTCGTGCTAG	-0.81 z-score
GCCGATCTCAGTTTCGAGACGTGCTAG	4.65 z-score
GACGGTATCCCTATCCTGACGTGCTAG	0.643 z-score
TCATCTCTTTCCTTCTTACTGTGCTAG	2.17 z-score

Series 4
Target: UBE2I UBC core domain (UniProt P63279)
Technique: yeast two-hybrid
Medium: yeast
Notes: mostly zero background
Reference: not given
Direction: higher = stronger interaction
B1: ANKIB1 RING domain (UniProt Q9P2G1); chain LSPGDLDTSLCDICMCSISVFEDPVDMPCGHDFCRGCWESFLNLKIQEGEAHNIFCPAYDCFQLVPVDIIE
B2: TRIM10 RING domain (UniProt Q9UDY6); chain SVTSLADEVNCPICQGTLREPVTIDCGHNFCRACLTRYCEIPGPDLEESPTCPLCKEPFRPGSFRP
B3: PEX2 RING domain (UniProt P28328); chain DNTLATSGKECALCGEWPTMPHTIGCEHIFCYFCAKSSFLFDVYFTCPKCGTEVHSLQPLK
B4: TRIM38 RING domain (UniProt O00635); chain STKKMMEEATCSICLSLMTNPVSINCGHSYCHLCITDFFKNPSQKQLRQETFCCPQCRAPFHMDSLRP
B5: TRIM3 RING domain (UniProt O75382); chain VQPMDKQFLVCSICLDRYQCPKVLPCLHTFCERCLQNYIPAQSLTLSCPVCRQTSILPEQGV
B6: RFPL2 RING domain (UniProt O75678); chain MAALFQEASSCPVCSDYLEKPMSLECGCAVCLKCINSLQKEPHGEDLLCCCSSMVSRKNKIRR
B7: RNF4 RING domain (UniProt P78317); chain TGLRPSGTVSCPICMDGYSEIVQNGRLIVSTECGHVFCSQCLRDSLKNANTCPTCRKKINHKRYHP
B8: TRIM35 RING domain (UniProt Q9UPQ4); chain PSRSFKEELLCAVCYDPFRDAVTLRCGHNFCRGCVSRCWEVQVSPTCPVCKDRASPADLRT
B9: RNF32 RING domain (UniProt Q9H0A6); chain SLLQGDSVQPCPICKEEFELRPQVLLSCSHVFHKACLQAFEKFTNKKTCPLCRKNQYQTRVIH
B10: RNF150 RING domain (UniProt Q9ULK6); chain DKETESDFDNCAVCIEGYKPNDVVRILPCRHLFHKSCVDPWLLDHRTCPMCKMNILKALGIP
B11: PHF7 RING domain (UniProt Q9BWX1); chain IQHGHVGEESCILCCEDLSQQSVENIQSPCCSQAIYHRKCIQKYAHTSAKHFFKCPQCNNRKEFPQEML
B12: RNF5 RING domain (UniProt Q99942); chain ERGGAGATFECNICLETAREAVVSVCGHLYCWPCLHQWLETRPERQECPVCKAGISREKVVP
Sequence	lacZ reporter activity
B1 (ANKIB1 RING domain)	0
FLKKLEQSFMCVCCQELVYQPVTTECFHNVCKDCLQRSFKAQVFSCPACRHDLGQNYIMI (UHRF2 RING domain (UniProt Q96PU4))	0
B2 (TRIM10 RING domain)	0
B3 (PEX2 RING domain)	0
B4 (TRIM38 RING domain)	0
B5 (TRIM3 RING domain)	0
LKQVSIRENCCSLCCDEVADTQLKPCGHSDLCMDCALQLETCPLCRKEIVSRIRQI (RSPRY1 RING domain (UniProt Q96DX4))	0
B6 (RFPL2 RING domain)	0
SYEDKSNDFVCPICFDMIEEAYMTKCGHSFCYKCIHQSLEDNNRCPKCNYVVDNIDHLY (COP1 RING domain (UniProt Q8NHY2))	0
B7 (RNF4 RING domain)	0
B8 (TRIM35 RING domain)	0
KRQCSDVDDICSICQAEFQKPILLICQHIFCEECMTLWFNREKTCPLCRTVISDHINKW (RNFT1 RING domain (UniProt Q5M7Z0))	0
B9 (RNF32 RING domain)	0
B10 (RNF150 RING domain)	0
B11 (PHF7 RING domain)	0
B12 (RNF5 RING domain)	0

Series 5
Target: Histone acetyltransferase KAT6A, both winged helices, GST fusion (KAT6A, Homo sapiens, UniProt Q92794, residues 1-181)
Technique: protein binding microarray
Molecule type: double-stranded DNA, one strand shown
Medium: in vitro
Concentration: not given
Notes: 8-mer, flanks averaged, mean of 2 arrays, mostly near background
Reference: not given
Direction: higher = stronger binding
Residues (chain): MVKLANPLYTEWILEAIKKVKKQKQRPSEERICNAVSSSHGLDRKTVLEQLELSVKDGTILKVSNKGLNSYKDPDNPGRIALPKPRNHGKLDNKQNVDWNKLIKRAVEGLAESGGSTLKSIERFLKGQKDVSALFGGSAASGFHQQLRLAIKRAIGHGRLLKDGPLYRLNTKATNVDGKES
Oligonucleotide	E-score
AAAATGAC	-0.0459
GATCCGTA	0.218
CACCGCGG	0.361
CATCTACC	-0.0523
AAATCGAG	-0.125
GTCTTGGA	-0.139
ATATCACA	-0.114
CAAGTGCC	-0.0391
AGACAAAC	-0.151
AAGTTTTC	-0.135
GTCACAGA	-0.109
ACTCTTCA	-0.133
GTCGTACA	-0.00844
ATGTTATC	-0.0676
GTCCGTGA	0.213
ACGTAGCA	-0.00439
AGTCGCCA	-0.164
ATTCCCCC	-0.149
ATTTTAAG	-0.00659
AACCGTAG	0.0565
AAACGCGC	0.286
AATGTCCG	0.254
AATCTCAT	-0.156
ATAAACTC	0.0063
GACCCCCC	-0.102
